Published values from different studies.
Lines come from different studies, so protocols differ.
Method: steady-state kinetics
B1: protein (UniProt A0A4Y6I1F8); chain MGSEVVSKKHEFGALEVEGIDFRASVAALGSTKKLVLGGAGFRGLEINGNLVKFTAIGIYVEEAIIPHLSPKLGGKTVEELCANELLFEEVLSAPFDKLIRVVFLLPLTGPQYSEKVVERIGLLPNPGLKEESIKQFLEIFKAENFPPRTSLVCSFTEDGLKIAFMKGPDFPEESDAVIEDKYFARAFLATIIAKDGVSPMAKLSFAERVSKYL
B2: enzyme D382E (Arabidopsis thaliana, UniProt O82390); chain MNARALLCSSNIHSLYTSNRPPEKTSSSRSLRNLKPSPKSLRVWIYPRNRSSVFRVLVRSSDKSESSNSYYVEGDKVSGNNDVVSDSPSSIVLPWWEEFPKRWVIVLLCFSAFLLCNMDRVNMSIAILPMSAEYGWNPATVGLIQSSFFWGYLLTQIAGGIWADTVGGKRVLGFGVIWWSIATILTPVAAKLGLPYLLVVRAFMGVGEGVAMPAMNNILSKWVPVQERSRSLALVYSGMYLGSVTGLAFSPFLIHQFGWPSVFYSFGSLGTVWLTLWLTKAESSPLEDPTLLPEERKLIADNCASKEPVKSIPWRLILSKPPVWALISCHFCHNWGTFILLTWMPTYYHQVLKFNLMESGLLSVFPWMTMAISANAGGWIAETLVSRGFSVTNVRKIMQTIGFLGPAFFLTQLKHIDSPTMAVLCMACSQGTDAFSQSGLYSNHQDIAPRYSGVLLGLSNTAGVLAGVLGTAATGHILQHGSWDDVFTISVGLYLVGTVIWNLFSTGEKIID
B3: aromatic amino acid decarboxylase (Bacillus atrophaeus, UniProt I0DFJ0); chain MSENLQLSAEEMRQLGYQAVDLIIDHMNHLKSKPVSETIDSDILRNKLTESIPENGSDPKELLHFLNRNVFNQITHVDHPHFLAFVPGPNNYVGVVADFLASGFNVFPTAWIAGAGAEQIELTTINWLKSMLGFPDSAEGLFVSGGSMANLTALTVARQAKLNNDIENAVVYFSDQTHFSVDRALKVLGFKHHQICRIETDEHLRISVSALKKQIKEDRTKGKKPFCVIANAGTTNCGAVDSLNELADLCNDEDVWLHADGSYGAPAILSEKGSAMLQGIHRADSLTLDPHKWLFQPYDVGCVLIRNSQYLSKTFRMMPEYIKDSETNVEGEINFGECGIELSRRFRALKVWLSFKVFGVAAFRQAIDHGIMLAEQVEAFLGKAKDWEVVTPAQLGIVTFRYIPSELASTDTINEINKKLVKEITHRGFAMLSTTELKEKVVIRLCSINPRTTTEEMLQIMMKIKALAEEVSISYPCVAE
B4: CMBL (Homo sapiens, UniProt Q96DG6); chain MANEAYPCPCDIGHRLEYGGLGREVQVEHIKAYVTKSPVDAGKAVIVIQDIFGWQLPNTRYIADMISGNGYTTIVPDFFVGQEPWDPSGDWSIFPEWLKTRNAQKIDREISAILKYLKQQCHAQKIGIVGFCWGGTAVHHLMMKYSEFRAGVSVYGIVKDSEDIYNLKNPTLFIFAENDVVIPLKDVSLLTQKLKEHCKVEYQIKTFSGQTHGFVHRKREDCSPADKPYIDEARRNLIEWLNKYM
B5: enzyme (Arabidopsis thaliana, UniProt Q949Q0); chain MAASVQPACLDLHFSGKHPPLLKHNAIIVRCVSSPNVIPEADSISGPPDIINTNRDQRKVVRIAWEKLVRWSRSLRAKAKTDVLERTRKVVVLGGGSFGTAMAAHVARRKEGLEVNMLVRDSFVCQSINENHHNCKYFPEHKLPENVIATTDAKAALLDADYCLHAVPVQFSSSFLEGIADYVDPGLPFISLSKGLELNTLRMMSQIIPIALKNPRQPFVALSGPSFALELMNNLPTAMVVASKDKKLANAVQQLLASSYLRINTSSDVTGVEIAGALKNVLAIAAGIVDGMNLGNNSMAALVSQGCSEIRWLATKMGAKPTTITGLSGTGDIMLTCFVNLSRNRTVGVRLGSGETLDDILTSMNQVAEGVATAGAVIALAQKYNVKLPVLTAVAKIIDNELTPTKAVLELMNLPQIEEV
B6: protein (Rheum palmatum, UniProt A0A7L9A2S6); chain MKKTELVFLPAPAPGHLVSTVEFSKRLIARDARLTVTILVISSPFSRGAQTNPSPGIRYVTLPQVDVPQHLMKDSIEHTISVYIASHAPHVRDAVAALQTESTVHVAGLFLDMFCTPMIDVANELGLPSYVFFCSSAGFLGLLLHLPVHSQPRFDETGLDVLIPSFQNPVPTRVLPRFGFNELGYKSFMDHAKRFGETKGIIINTYAELEPYALKSLLDAYDTAPVYAVGPVLDLRSQVHMPCDAAERARIMGWLDKQPDSSVVFLCFGSGGSFSEHQIREISKGLSQSGQRFLWSVRKPPTGGLVKPTEYTETELRSVLGDEFWSLLDEGERGVVCGWAPQVEVLGHKSVGAFVSHCGWNSTLESLWFGKPMVTWPLYAEQQMNAFELVKELGIAVELTLDYRLHSSEVVEAREVERAVRRVMDENNPVRYKVKEMAEVCRATLVEGGSSFVCVDRLISGFLGEIN
B7: enzyme (Halalkalibacterium halodurans, UniProt Q9KCN8); chain MLNVTQLQEATTFIQQQIETKPTIGLILGSGLGILADEIEQPVKVPYSDIPHFPVSTVQGHAGQLVIGMLEGKQVIAMQGRFHFYEGYSLEVVTFPVRVMKALGVEQIIVTNAAGGVNESFEAGDLMIIRDHINNMAQNPLIGPNDEAFGVRFPDMSNAYSERLRTLAKEKGNTLNLKLQEGVYVANTGPVYETPAEVRMIRKLGGDAVGMSTVPEVIVARHAGLEVLGISCISNMAAGILPQPLSHDEVIETTERVRQDFLNLVKAIVKDM
B8: BPHL (Homo sapiens, UniProt Q86WA6); chain SVTSAKVAVNGVQLHYQQTGEGDHAVLLLPGMLGSGETDFGPQLKNLNKKLFTVVAWDPRGYGHSRPPDRDFPADFFERDAKDAVDLMKALKFKKVSLLGWSDGGITALIAAAKYPSYIHKMVIWGANAYVTDEDSMIYEGIRDVSKWSERTRKPLEALYGYDYFARTCEKWVDGIRQFKHLPDGNICRHLLPRVQCPALIVHGEKDPLVPRFHADFIHKHVKGSRLHLMPEGKHNLHLRFADEFNKLAEDFLQ
B9: bga (Niallia circulans, UniProt E5RWQ2); chain GNSVSYDGERRVNFNENWRFQRETNGSIAGAQNPGFDDSSWRKLNLPHDWSIELDFNKNSLATHEGGYLDGGIGWYRKTFTIPESMKGKRISLDFDGVYMNSTTYLNGEVLGTYPFGYNAFSYDISDKLYKDGRANVLVVKVNNTQPSSRWYSGSGIYRNVYLTVTDPIHVARYGTFVTTPNLEKSIKEDRADVNIKTKISNDAAEAKQVKIKSTIYDGAGNTVQTVETEEKTAAAGTVTPFEQNTVIKQPKLWSIDKPYRYNLVTEVIVGGQTVDTYETKFGVRYFKFDENEGFSLNGEYMKLHGVSMHHDLGALGAATNARGVERQMQIMKDMGVNAIRVTHNPASPELLEAANKLGLFIIEEAFDSWAQSKKPYDYGRFFNAWAEHDIKEMVDRGKNEPAIIMWSIGNEIYDTTNAAGVETARNLVGWVKEIDTTRPTTIGEDKTRGDKVNVTPINSYIKEIFNIVDVVGLNYSENNYDGYHKQNPSWKLYGSETSSATRSRGVYTHPYQYNQSTKYADLQQSSYDNDYVGWGRTAEDAWKYDRDLKHIAGQFIWTGFDYIGEPTPYYNSYPAKSSYFGAVDTAGFPKDIFYYYQSQWKKEPMVHLLPHWNWKEGEKVRVLAYTNASKVELVLNGESLGEKNYDNKQTSWGAPYKETKDGKTYLEWAVPFKPGKLEAVAKDENGKVIARDQVVTAGEPASVRLTADRKVVKADGTDLSFITADIVDSKGIVVPDADHLITFNVTGQGELAGVDNGNASSVERYKDNKRKAFSGKALAIVQSSKLSGKITVHASVAGLSSDSTSVFTVTP
B10: FMO3 D132H (Homo sapiens, UniProt P31513); chain GKKVAIIGAGVSGLASIRSCLEEGLEPTCFEKSNDIGGLWKFSDHAEEGRASIYKSVFSNSSKEMMCFPDFPFPDDFPNFMHNSKIQEYIIAFAKEKNLLKYIQFKTFVSSVNKHPDFATTGQWDVTTERHGKKESAVFDAVMVCSGHHVYPNLPKESFPGLNHFKGKCFHSRDYKEPGVFNGKRVLVVGLGNSGCDIATELSRTAEQVMISSRSGSWVMSRVWDNGYPWDMLLVTRFGTFLKNNLPTAISDWLYVKQMNARFKHENYGLMPLNGVLRKEPVFNDELPASILCGIVSVKPNVKEFTETSAIFEDGTIFEGIDCVIFATGYSFAYPFLDESIIKSRNNEIILFKGVFPPLLEKSTIAVIGFVQSLGAAIPTVDLQSRWAAQVIKGTCTLPSMEDMMNDINEKMEKKRKWFGKSETIQTDYIVYMDELSSFIGAKPNIPWLFLTDPKLAMEVYFGPCSPYQFRLVGPGQWPGARNAILTQWDRSLKPMQTRVVGRLQKPCFFFHWLKLFAIPILLIAVFLVLT
UniProt A4YGN2, sequence (whole entry, looked up): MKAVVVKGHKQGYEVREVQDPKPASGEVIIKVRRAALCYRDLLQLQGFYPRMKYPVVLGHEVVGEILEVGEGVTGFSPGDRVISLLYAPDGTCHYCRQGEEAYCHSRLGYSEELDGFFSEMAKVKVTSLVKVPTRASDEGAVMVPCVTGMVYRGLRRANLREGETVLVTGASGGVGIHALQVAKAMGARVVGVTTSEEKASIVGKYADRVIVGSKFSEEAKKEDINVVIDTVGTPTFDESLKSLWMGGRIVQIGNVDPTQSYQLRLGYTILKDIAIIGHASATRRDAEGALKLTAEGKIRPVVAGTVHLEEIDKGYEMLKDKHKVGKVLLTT
UniProt O60656, sequence (whole entry, looked up): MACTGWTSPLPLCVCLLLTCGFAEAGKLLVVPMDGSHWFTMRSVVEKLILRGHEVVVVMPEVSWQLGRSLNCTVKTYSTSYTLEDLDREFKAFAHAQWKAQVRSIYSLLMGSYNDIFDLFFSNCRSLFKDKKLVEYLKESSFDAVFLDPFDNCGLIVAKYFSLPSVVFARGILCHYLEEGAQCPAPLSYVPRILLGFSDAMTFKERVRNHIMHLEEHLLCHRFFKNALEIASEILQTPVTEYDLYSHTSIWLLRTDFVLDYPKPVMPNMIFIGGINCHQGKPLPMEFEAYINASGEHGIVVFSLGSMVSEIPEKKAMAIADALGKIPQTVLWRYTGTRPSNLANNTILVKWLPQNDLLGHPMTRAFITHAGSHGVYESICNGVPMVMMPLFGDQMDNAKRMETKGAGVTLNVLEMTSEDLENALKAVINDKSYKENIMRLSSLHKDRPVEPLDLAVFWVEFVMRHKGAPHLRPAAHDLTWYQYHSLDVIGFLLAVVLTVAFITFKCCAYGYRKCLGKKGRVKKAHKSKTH
UniProt Q04JB0, sequence (whole entry, looked up): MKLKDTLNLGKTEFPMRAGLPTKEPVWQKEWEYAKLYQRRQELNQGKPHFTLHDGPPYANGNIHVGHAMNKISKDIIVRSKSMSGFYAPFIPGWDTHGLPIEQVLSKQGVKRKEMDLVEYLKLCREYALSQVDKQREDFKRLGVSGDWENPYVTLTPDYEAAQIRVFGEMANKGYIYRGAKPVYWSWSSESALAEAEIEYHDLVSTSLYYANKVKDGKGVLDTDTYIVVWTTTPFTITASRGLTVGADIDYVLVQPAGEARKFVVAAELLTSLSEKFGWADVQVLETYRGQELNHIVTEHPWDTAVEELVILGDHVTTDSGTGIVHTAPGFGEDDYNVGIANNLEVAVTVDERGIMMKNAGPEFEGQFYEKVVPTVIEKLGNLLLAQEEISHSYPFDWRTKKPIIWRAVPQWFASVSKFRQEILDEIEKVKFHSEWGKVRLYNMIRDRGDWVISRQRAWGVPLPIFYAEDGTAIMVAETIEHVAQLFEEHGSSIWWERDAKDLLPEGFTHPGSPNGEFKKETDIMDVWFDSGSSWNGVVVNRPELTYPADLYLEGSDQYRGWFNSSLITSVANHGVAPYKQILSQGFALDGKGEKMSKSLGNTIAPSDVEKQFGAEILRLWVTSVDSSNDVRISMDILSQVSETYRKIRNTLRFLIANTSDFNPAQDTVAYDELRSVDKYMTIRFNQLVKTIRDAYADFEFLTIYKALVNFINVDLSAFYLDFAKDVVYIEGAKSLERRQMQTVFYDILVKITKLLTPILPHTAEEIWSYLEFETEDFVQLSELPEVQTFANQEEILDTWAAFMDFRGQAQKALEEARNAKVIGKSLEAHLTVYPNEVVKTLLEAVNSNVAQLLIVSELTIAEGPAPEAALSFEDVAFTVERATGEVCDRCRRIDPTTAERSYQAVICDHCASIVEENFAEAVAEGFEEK

With `acryloyl-CoA reductase (Metallosphaera sedula, UniProt A4YGN2)` the Vmax was 7.6 µmol/min/mg (C=CC(=O)SCCNC(=O)CCNC(=O)[C@H](O)C(C)(C)COP(=O)(O)OP(=O)(O)OC[C@H]1O[C@@H](n2cnc3c(N)ncnc32)[C@H](O)[C@@H]1OP(=O)(O)O; pH 6.5, 65 °C, substrate made in situ, together with: ATP, CoA, NADPH).
`enzyme (Scutellaria baicalensis, UniProt A0A146AUQ2)` has a Vmax of 10.1 µmol/min/mg (O=C(O)/C=C/c1ccccc1; pH 7.8, apparent).
`B1 (protein)` has a Vmax of 0.514 µmol/min/mg (O=C(/C=C/c1ccc(O)cc1)c1ccc(O)cc1O).
`B2 (enzyme D382E)` gave a Vmax of 0.00168 µmol/min/mg (O=P(O)(O)O; pH 6.5, 25 °C, apparent, not purified).
For `B3`, the Vmax was 0.3 µmol/min/mg (N[C@@H](Cc1c[nH]c2ccccc12)C(=O)O; pH 7, 37 °C, not purified, together with: PLP 40 µM).
With `B4 (CMBL)` the Vmax was 0.0164 µmol/min/mg (Cc1oc(=O)oc1COC(=O)C1=C([C@H]2CCCO2)S[C@@H]2[C@@H]([C@@H](C)O)C(=O)N12; lysate; pH 7.4, 37 °C, not purified).
For `speG (Vibrio cholerae, UniProt Q9KL03)`, the Vmax was 111 µmol/min/mg (NCCCNCCCCNCCCN; pH 9, 37 °C).
For `UGT1A9 (Homo sapiens, UniProt O60656)`, the Vmax was 0.00365 µmol/min/mg (Cc1cc(=O)oc2cc(O)ccc12; pH 7.4, 37 °C).
`B5 (enzyme)` gave a Vmax of 49.2 µmol/min/mg (O=C(CO)COP(=O)(O)O; pH 7.2, 30 °C, apparent).
`B6 (protein)` gave a Vmax of 6.85e+07 µM/min/mg (COc1cc(-c2oc3cc(O)cc(O)c3c(=O)c2O)ccc1O; pH 7.5, 35 °C, apparent, together with: UDP-glucose).
For `B7 (enzyme)`, the Vmax was 0.122 µmol/min (Nc1nc2c(ncn2[C@@H]2O[C@H](CO)[C@@H](O)[C@H]2O)c(=O)[nH]1; pH 8).
`B8 (BPHL)` gave a Vmax of 0.00412 µmol/min/mg (CC(C)[C@H](N)C(=O)NCc1cccc(NC=NN)c1; pH 7.4, 37 °C).
The Vmax of `ileS (Streptococcus pneumoniae, UniProt Q04JB0)` is reported as 0.0015 µM/min/mg (CC(C)C[C@H](N)C(=O)O; pH 7.2, 37 °C, together with: ATP 2 mM).
The Vmax of `B9 (bga)` is reported as 35.8 µmol/min/mg (O=[N+]([O-])c1ccccc1O[C@@H]1O[C@H](CO)[C@H](O)[C@H](O)[C@H]1O; pH 6, 40 °C, low-substrate phase, biphasic).
For `protein (Danio rerio, UniProt A0ACM8QCA3)`, the Vmax was 0.0756 µmol/min/mg (C[C@H](CCCC(CO)CO)[C@H]1CC[C@H]2[C@@H]3[C@H](O)C[C@@H]4C[C@H](O)CC[C@]4(C)[C@H]3C[C@H](O)[C@]12C; pH 7, 28 °C, substrate inhibition, together with: PAPS 14 µM).
For `B10 (FMO3 D132H)`, the Vmax was 7.9e-06 µmol/min/mg (CN1CCC[C@H]1c1cccnc1; HEK293 microsomes; 37 °C, not purified, together with: NADPH regenerating system).

For quick reference, copied from above:
For `UGT1A9 (Homo sapiens, UniProt O60656)`, the Vmax was 0.00365 µmol/min/mg (Cc1cc(=O)oc2cc(O)ccc12; pH 7.4, 37 °C).
`B5 (enzyme)` gave a Vmax of 49.2 µmol/min/mg (O=C(CO)COP(=O)(O)O; pH 7.2, 30 °C, apparent).
